Assay results collected from several papers.
Each numbered part is a random draw from the data of one study; scales do not carry over between parts. “And” joins repeats or separate records; there may be more than shown. Positions count from the first letter of the parent shown.
Sequence of UniProt P61075 (whole entry, looked up): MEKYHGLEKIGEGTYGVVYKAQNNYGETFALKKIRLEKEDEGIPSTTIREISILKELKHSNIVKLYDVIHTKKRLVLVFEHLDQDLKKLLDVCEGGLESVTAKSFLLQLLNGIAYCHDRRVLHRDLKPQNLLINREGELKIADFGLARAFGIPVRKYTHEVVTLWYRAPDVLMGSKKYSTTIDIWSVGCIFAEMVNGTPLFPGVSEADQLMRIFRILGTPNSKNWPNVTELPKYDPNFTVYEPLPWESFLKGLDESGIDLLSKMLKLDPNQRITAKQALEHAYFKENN
Sequence of UniProt Q9HCP0 (whole entry, looked up): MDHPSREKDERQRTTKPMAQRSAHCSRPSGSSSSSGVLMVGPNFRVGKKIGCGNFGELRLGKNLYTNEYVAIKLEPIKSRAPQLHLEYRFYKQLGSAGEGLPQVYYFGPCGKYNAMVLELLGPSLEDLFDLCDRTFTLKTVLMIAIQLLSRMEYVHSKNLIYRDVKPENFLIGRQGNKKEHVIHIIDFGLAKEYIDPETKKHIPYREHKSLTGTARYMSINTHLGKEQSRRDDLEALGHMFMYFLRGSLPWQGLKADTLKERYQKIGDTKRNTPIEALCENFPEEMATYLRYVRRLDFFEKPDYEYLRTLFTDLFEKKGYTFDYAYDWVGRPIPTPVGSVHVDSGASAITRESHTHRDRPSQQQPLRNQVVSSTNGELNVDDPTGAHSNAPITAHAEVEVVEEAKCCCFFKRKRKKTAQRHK

Study 1
Target: HLA class I histocompatibility antigen, A alpha chain, allele A*26:03 (Homo sapiens, UniProt P04439)
Observed: peptide-MHC binding
Molecule type: peptide
Concentration: concentration not given
Measurement: binding
Molecule = KRFYQTVGF; result = inactive
Molecule = ASFKAGKLR; result = inactive
Molecule = EFKQILTDF; result = inactive
Molecule = AEILSGRVI; result = inactive
Molecule = IATLYCVHQR; result = inactive
Molecule = FEIGNGDAG; result = inactive
Molecule = KGHLPLLDK; result = inactive
Molecule = RVFPGDHFY; result = inactive

Study 2
Target: CCNF, cyclin fold, Cln2 fusion (human)
Technique: yeast growth competition, sequencing
Sample: yeast
Setting: strong parent motif
Relative to: not given
Reading: higher = stronger binding
Measurement: normalised enrichment score
Starting sequence: viral docking peptide; CKVKRKLFGSENI; partner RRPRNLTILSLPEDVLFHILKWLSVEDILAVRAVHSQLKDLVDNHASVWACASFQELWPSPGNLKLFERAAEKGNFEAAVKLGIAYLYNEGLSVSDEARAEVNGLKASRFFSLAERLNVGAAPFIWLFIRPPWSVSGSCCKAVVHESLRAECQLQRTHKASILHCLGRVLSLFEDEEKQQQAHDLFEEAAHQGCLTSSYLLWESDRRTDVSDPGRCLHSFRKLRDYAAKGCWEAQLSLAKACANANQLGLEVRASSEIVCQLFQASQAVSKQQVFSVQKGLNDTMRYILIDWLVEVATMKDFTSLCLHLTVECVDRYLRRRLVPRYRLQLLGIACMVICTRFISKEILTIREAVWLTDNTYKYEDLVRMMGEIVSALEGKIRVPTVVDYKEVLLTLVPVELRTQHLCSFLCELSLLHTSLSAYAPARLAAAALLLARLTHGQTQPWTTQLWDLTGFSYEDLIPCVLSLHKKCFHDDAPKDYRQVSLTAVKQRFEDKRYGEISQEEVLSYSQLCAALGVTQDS
Variant = CKVKAKLFGSENI [R5A]; result = 1.28
Variant = CKVKRKLLGSENI [F8L]; result = 1.85
Variant = CKVKKKLFGSENI [R5K]; result = 4.14
Variant = CKVKRKLAGSENI [F8A]; result = 0.87
Variant = CKVKRKLFGSANI [E11A]; result = 7.79
Variant = CKVKRKLFGAENI [S10A]; result = 8.69
Variant = CKVKRKLFGSENA [I13A]; result = 8.11
Variant = CKVKRKLFGSEAI [N12A]; result = 7.32

Other studies, line by line
Molecule = CCCCN(CCCC)C(=O)CN1C[C@@H](c2cc(OC)c3c(c2)OCO3)[C@H](C(=O)O)[C@H]1CC(C)(C)CCC; tested on = Cyclin-dependent kinase 2 homolog (CRK2, Plasmodium falciparum, UniProt P61075); assay = cell-free assay, competition with immobilised ligand; setting = 1 µM; measurement = remaining binding; result = 95.9%
Molecule = meglumine antimoniate; tested on = Leishmania infantum chagasi; system = MHOM/BR/1972/BH46, golden hamster chronic infection, spleen; setting = intraperitoneal, 50 mg/kg/day, 10 days; measurement = parasite load; result = 43000 amastigotes/g tissue and 7660 amastigotes/g tissue and 49 amastigotes/g tissue and 114 amastigotes/g tissue and 10000 amastigotes/g tissue
Molecule = COc1ccc2c(c1)/C(=C/c1cnc[nH]1)C(=O)N2; tested on = Casein kinase I isoform gamma-1 (CSNK1G1, Homo sapiens, UniProt Q9HCP0); assay = enzyme activity, inhibitor; setting = 0.5 µM; how to read = relative to: control; measurement = remaining activity; result = 106%

Some of these lines once more (study 2):
Variant = CKVKRKLAGSENI [F8A]; result = 0.87
Variant = CKVKRKLFGSANI [E11A]; result = 7.79
